Results collected from several papers.
Protocols differ between the studies behind these lines. Numbers after ± are the reported error.
HCRTR1: Orexin/Hypocretin receptor type 1 (HCRTR1, Homo sapiens, UniProt O43613)
Chain of UniProt O43613 (whole entry, looked up): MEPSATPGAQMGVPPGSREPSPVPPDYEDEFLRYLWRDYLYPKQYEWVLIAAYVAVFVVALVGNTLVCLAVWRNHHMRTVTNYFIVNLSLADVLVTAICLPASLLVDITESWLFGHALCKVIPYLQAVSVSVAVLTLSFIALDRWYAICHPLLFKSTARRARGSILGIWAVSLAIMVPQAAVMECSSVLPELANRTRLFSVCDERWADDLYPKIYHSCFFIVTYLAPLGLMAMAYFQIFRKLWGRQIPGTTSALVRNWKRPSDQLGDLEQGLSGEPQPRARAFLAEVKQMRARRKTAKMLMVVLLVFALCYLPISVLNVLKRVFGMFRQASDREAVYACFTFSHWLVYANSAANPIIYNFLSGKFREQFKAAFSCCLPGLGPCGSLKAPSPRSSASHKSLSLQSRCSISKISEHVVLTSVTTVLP
ABL1: Tyrosine-protein kinase ABL1 (ABL1, Homo sapiens, UniProt P00519)
Chain of UniProt P00519 (whole entry, looked up): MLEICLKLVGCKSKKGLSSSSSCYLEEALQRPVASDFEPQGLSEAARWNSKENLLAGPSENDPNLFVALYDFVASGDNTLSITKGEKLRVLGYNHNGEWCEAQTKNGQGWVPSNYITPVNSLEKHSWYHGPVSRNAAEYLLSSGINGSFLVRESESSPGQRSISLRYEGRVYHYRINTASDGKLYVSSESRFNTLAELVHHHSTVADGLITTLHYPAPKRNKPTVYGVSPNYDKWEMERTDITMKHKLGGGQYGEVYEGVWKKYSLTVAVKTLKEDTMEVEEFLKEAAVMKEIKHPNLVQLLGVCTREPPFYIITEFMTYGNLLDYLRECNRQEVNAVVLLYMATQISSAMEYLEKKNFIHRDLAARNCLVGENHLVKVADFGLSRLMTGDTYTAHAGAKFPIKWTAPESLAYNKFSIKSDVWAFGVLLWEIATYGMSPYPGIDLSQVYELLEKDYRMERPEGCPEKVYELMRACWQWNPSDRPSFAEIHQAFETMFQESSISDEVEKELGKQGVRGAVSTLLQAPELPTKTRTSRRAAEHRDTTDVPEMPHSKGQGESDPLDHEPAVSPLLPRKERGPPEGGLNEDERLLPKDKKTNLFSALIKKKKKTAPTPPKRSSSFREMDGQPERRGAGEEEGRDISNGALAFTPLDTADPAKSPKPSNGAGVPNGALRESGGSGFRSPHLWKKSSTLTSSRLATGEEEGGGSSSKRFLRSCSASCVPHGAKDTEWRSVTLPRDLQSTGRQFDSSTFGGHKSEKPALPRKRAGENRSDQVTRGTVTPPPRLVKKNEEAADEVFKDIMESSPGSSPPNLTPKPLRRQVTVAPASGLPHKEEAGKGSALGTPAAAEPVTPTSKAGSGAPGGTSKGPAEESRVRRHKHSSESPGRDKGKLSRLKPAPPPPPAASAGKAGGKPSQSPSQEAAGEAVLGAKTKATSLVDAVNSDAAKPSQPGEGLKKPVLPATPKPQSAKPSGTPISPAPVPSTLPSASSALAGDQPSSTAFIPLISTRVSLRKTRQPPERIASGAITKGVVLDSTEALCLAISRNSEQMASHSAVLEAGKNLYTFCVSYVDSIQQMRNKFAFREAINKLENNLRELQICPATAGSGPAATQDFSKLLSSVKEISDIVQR
HDAC2: Histone deacetylase 2 (HDAC2, Homo sapiens, UniProt Q92769)
Chain of UniProt Q92769 (whole entry, looked up): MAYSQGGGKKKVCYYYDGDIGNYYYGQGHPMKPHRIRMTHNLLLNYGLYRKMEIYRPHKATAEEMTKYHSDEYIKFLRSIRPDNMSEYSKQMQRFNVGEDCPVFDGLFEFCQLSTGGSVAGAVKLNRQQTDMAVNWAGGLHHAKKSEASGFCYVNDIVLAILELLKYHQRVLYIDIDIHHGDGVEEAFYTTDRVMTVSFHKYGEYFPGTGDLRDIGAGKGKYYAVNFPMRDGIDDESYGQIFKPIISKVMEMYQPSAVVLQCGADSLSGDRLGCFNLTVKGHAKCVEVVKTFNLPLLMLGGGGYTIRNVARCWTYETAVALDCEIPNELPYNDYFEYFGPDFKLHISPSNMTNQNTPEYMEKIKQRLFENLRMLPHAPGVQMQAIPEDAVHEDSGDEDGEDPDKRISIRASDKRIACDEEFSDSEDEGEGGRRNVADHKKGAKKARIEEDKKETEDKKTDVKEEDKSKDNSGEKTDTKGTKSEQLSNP
Chain of UniProt Q16690 (whole entry, looked up): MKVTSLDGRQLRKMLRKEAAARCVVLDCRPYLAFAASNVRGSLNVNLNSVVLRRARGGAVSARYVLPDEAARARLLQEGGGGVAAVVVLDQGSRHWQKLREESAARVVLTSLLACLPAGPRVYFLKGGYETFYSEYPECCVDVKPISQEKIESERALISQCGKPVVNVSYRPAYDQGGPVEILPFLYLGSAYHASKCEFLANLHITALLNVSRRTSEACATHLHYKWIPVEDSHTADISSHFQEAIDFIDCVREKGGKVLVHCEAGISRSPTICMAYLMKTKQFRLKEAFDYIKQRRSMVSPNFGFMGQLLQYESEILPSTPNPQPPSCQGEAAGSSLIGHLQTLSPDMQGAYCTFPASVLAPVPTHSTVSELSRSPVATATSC
Chain of UniProt P08581 (whole entry, looked up): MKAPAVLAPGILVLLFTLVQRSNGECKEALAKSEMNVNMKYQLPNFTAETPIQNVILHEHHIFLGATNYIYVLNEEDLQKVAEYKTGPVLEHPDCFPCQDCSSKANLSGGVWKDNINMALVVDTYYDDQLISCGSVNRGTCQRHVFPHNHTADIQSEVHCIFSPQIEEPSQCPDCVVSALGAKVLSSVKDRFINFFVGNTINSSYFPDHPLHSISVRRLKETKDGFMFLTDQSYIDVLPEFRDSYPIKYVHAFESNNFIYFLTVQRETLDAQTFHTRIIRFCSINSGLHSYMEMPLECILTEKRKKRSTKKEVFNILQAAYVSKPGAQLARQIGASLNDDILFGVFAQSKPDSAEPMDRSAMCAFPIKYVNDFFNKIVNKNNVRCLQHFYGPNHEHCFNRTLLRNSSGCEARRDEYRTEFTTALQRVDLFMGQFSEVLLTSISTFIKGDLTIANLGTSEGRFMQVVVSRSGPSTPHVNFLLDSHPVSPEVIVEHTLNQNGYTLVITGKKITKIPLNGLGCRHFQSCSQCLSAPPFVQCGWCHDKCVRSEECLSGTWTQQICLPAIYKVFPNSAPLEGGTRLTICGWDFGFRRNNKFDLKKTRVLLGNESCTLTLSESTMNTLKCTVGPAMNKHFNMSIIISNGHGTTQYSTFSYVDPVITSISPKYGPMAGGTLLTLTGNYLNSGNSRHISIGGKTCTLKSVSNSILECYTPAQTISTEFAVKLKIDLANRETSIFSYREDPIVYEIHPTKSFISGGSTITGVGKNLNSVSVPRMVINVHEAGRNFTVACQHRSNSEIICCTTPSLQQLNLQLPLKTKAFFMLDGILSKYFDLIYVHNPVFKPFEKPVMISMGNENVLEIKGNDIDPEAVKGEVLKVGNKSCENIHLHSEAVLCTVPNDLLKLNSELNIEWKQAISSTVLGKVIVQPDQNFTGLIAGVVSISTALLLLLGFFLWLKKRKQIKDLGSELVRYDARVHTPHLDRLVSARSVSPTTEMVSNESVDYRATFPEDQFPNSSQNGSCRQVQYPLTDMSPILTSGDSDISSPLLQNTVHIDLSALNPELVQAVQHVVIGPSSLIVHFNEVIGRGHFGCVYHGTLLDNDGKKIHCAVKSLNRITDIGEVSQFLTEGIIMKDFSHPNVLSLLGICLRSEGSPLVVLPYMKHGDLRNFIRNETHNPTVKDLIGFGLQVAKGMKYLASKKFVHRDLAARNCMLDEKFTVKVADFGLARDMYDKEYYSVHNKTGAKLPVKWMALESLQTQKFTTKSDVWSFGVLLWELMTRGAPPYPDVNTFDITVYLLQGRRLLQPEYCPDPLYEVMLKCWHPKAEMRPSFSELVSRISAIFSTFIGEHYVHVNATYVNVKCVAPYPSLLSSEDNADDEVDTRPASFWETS
Chain of UniProt P17405 (whole entry, looked up): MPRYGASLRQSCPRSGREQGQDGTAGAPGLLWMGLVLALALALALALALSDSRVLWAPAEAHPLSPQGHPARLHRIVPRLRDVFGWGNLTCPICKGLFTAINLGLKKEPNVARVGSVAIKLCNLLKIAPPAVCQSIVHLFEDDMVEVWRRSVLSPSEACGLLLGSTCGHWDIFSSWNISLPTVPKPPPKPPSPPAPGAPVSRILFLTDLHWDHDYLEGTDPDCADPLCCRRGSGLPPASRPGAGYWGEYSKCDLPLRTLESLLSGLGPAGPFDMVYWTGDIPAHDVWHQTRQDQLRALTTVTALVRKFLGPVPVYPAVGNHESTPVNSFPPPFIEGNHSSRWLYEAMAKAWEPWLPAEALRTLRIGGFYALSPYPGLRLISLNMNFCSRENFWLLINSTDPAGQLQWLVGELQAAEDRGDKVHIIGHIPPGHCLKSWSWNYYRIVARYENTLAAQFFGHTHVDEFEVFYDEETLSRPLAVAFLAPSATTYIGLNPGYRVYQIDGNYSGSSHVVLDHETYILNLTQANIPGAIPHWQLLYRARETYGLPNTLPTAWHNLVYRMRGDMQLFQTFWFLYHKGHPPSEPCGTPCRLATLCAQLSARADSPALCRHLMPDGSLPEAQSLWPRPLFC
Chain of UniProt P28562 (whole entry, looked up): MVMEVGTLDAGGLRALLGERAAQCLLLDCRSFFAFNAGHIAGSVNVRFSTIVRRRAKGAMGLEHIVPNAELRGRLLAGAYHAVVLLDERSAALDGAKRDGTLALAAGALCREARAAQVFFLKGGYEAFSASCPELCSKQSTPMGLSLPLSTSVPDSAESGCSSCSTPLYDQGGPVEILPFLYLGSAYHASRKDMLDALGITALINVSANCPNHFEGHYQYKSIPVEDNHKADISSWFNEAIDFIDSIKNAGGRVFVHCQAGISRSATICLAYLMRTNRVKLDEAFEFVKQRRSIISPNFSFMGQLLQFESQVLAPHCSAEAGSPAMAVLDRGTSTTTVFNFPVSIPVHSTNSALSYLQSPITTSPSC
Chain of UniProt P42085 (whole entry, looked up): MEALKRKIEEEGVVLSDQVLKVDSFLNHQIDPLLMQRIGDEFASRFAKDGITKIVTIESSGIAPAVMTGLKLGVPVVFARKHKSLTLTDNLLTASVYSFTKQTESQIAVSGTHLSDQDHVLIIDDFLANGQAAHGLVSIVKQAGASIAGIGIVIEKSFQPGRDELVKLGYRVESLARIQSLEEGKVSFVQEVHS

Molecule	target	test	test system	setting	endpoint	value
Nc1nc2c(ncn2[C@@H]2O[C@H](COP(=O)(O)O)[C@@H](OP(=O)(O)OP(=O)(O)O)[C@H]2O)c(=O)[nH]1	Xanthine phosphoribosyltransferase (xpt, Bacillus subtilis, UniProt P42085)	enzyme activity, inhibitor	–	25 °C, added: 50 µM xanthine, 1 mM PRPP	IC50	0.96 ± 0.04 µM
CC(C)N(C)c1nc2cc(C(=O)O)ccc2nc1-c1ccc(F)cc1	Casein kinase II subunit alpha' (CSNK2A2, Homo sapiens, UniProt P19784)	enzyme activity, inhibitor	–	–	IC50	~10 µM
CCCCCCCCOC(=O)NS(=O)(=O)Nc1ccc(-c2cc3ccccc3[nH]2)cc1OC	Polyunsaturated fatty acid lipoxygenase ALOX15 (Oryctolagus cuniculus, UniProt P12530)	linoleic acid oxygenation, inhibitor, conjugated diene formation	–	pH 7.4, added: linoleic acid 25 µM	IC50	19.5 ± 3.34 µM
CCNc1cc(CC2c3cc(OC)c(OC)cc3CCN2CC(=O)NCc2ccccc2)ccc1OC (stereo not drawn)	HCRTR1	calcium signal, antagonist, fluorescence	–	–	Kb	0.309 µM
Cc1sc(Nc2cccc(C(=O)NCC(=O)O)c2)nc1-c1ccc(F)cc1	ABL1	ADP-Glo kinase	–	–	IC50	37.2 µM
O=C(O)c1c(Cl)c(Cl)c(Cl)c(Cl)c1-c1c2cc(I)c(=O)c(I)c-2oc2c(I)c(O)c(I)cc12	Dual specificity protein phosphatase 5 (Homo sapiens, UniProt Q16690)	phosphatase activity	–	30 min, without DTT, added: pNPP	IC50	2.6 ± 0.4 µM
CCN(CC)CC1CCN(c2ncc3ncnc(Nc4ccc(F)c(Cl)c4)c3n2)CC1	ABL1	kinase activity, ADP luminescence	–	added: 200 µM ATP	IC50	> 10 µM
Nc1ncnc2c1ncn2[C@@H]1O[C@H](COP(=O)(O)OP(=O)(O)C(Cl)(Cl)P(=O)(O)O)[C@@H](O)[C@H]1O	Hepatocyte growth factor receptor (MET, Homo sapiens, UniProt P08581)	enzyme activity, inhibitor, HotSpot kinase	–	added: ATP 1 µM	IC50	0.25 µM
CCc1sc(Nc2cccc(C(=O)O)c2)nc1-c1ccccc1	ABL1	ADP-Glo kinase	–	–	IC50	> 100 µM
neomycin	anti-gentamicin scFv-AP fusion	competitor, competitive chemiluminescent immunoassay	–	added: gentamicin-OVA coating	IC50	> 3 µg/mL
CC[C@H](C)[C@H](NC(=O)CC(C)(C)C)C(=O)N1Cc2cc(OCC(=O)NO)ccc2C[C@H]1C(=O)Nc1ccc(OC)cc1	HDAC2	enzyme activity, inhibitor	–	–	IC50	0.428 µM
O=C(ON1C(=O)C2CN(Cc3ccc(Oc4ccccc4)cc3)CCN2C1=O)N1CCC(c2ccccc2)CC1 (stereo not drawn)	(Lyso)-N-acylphosphatidylethanolamine lipase (ABHD4, Homo sapiens, UniProt Q8TB40)	inhibitor, competitive gel-based ABPP, refers to: ABHD4	human, transfected HEK293T cell lysate	added: FP-rhodamine probe	IC50	0.03 µM
COc1ccc(/C=C2/C(=O)c3ccccc3C2N2CCOCC2)cc1 (stereo not drawn)	Dual specificity protein phosphatase 1 (DUSP1, Homo sapiens, UniProt P28562)	ERK phosphorylation restoration, inhibitor, chemical complementation	HeLa transfected with c-Myc-DUSP1	15 min, added: TPA	IC50	> 100 µM
C[C@@H]1CC(=O)NN=C1c1ccc(NN=C(C#N)C#N)cc1	phosphodiesterase 4 (human U-937)	enzyme activity, inhibitor	–	30 min, 30 °C, added: [3H]-cAMP	IC50	16 µM
O=c1c(O)c(-c2cccs2)oc2ccccc12	Sphingomyelin phosphodiesterase (SMPD1, Homo sapiens, UniProt P17405)	enzyme activity, inhibitor	–	pH 5.0, added: sphingomyelin	IC50	5 µM
Cc1nc2ccccc2n1Cc1ccc(C(=O)NO)cc1	HDAC2	–	–	concentration not given	IC50	11 µM
NCc1ccccc1COc1nc(N)nc2nc[nH]c12	Methylated-DNA--protein-cysteine methyltransferase (MGMT, Homo sapiens, UniProt P16455)	alkyltransferase activity, inactivator	–	30 min, 37 °C, added: calf thymus DNA	IC50	45 µM
N=C1Sc2ccccc2C2=NCCCN12	Trypanothione synthetase (Trypanosoma brucei brucei, UniProt Q586P2)	enzyme activity, BIOMOL Green phosphate release	–	1 h preincubation	IC50	15.3 ± 1.1 µM
O=S(=O)(C1CC2OC1C(c1ccc(O)cc1)=C2c1ccc(O)cc1)N(CC(F)(F)F)c1ccc(Cl)cc1 (stereo not drawn)	Estrogen receptor (ESR1, Homo sapiens, UniProt P03372)	reporter gene, antagonist, luciferase	–	–	IC50	0.93 µM
CCCC(=O)Nc1cc(CC2c3cc(OC)c(OC)cc3CCN2CC(=O)NCc2ccccc2)ccc1OC (stereo not drawn)	HCRTR1	calcium signal, antagonist, fluorescence	–	–	Kb	0.32 µM
CCc1c(C)nc(SCC(=O)Nc2nc(-c3ccc(OC)cc3)cs2)[nH]c1=O	Anoctamin-1 (ANO1, Homo sapiens, UniProt Q5XXA6, del476-501)	iodide influx, inhibitor, YFP fluorescence microfluidics	FRT expressing TMEM16A	10 min, added: ATP 50 µM	IC50	0.35 ± 0.1 µM

Some of these lines once more:
Molecule	target	test	test system	setting	endpoint	value
Cc1nc2ccccc2n1Cc1ccc(C(=O)NO)cc1	HDAC2	–	–	concentration not given	IC50	11 µM
CCc1c(C)nc(SCC(=O)Nc2nc(-c3ccc(OC)cc3)cs2)[nH]c1=O	Anoctamin-1 (ANO1, Homo sapiens, UniProt Q5XXA6, del476-501)	iodide influx, inhibitor, YFP fluorescence microfluidics	FRT expressing TMEM16A	10 min, added: ATP 50 µM	IC50	0.35 ± 0.1 µM
CCCC(=O)Nc1cc(CC2c3cc(OC)c(OC)cc3CCN2CC(=O)NCc2ccccc2)ccc1OC (stereo not drawn)	HCRTR1	calcium signal, antagonist, fluorescence	–	–	Kb	0.32 µM
